Published values pooled from the literature.
Each line is one published result; not all experiments were run side by side. Values joined by “and” are separate records of one study, mostly repeats; a detail may differ. Numbers after ± are the reported error.

| Substance | assay | test system | conditions | scale | measurement | value |
| --- | --- | --- | --- | --- | --- | --- |
| Cc1nc(NC(=O)N2CCC[C@H]2C(N)=O)sc1-c1ccnc(C(C)(C)C(F)(F)F)c1 |  | human, HER2-negative metastatic breast cancer | concentration not given, median, monotherapy after nab-paclitaxel stop |  | time to progression | 15 weeks |
| C[C@H]1C[C@H]2CSC(N)=N[C@@]2(c2nc(NC(=O)c3ccc(OC(F)F)cn3)cs2)CO1 | refers to: plasma Aβ1-40 | human | 540 mg single dose, 48 h | reference: placebo | maximum reduction | 90.3% |
| CN(C)C(=O)N[C@H]1CC[C@H](CCN2CCN(c3cccc(Cl)c3Cl)CC2)CC1 |  | Sprague-Dawley rat, ouabain-induced mania | ip, 0.06 mg/kg daily, 7 days, squares in 30 min, added: ouabain icv single |  | open field activity | 112 ± 22.9 squares crossed |
| CC1(C)CCC(CN2CCN(c3ccc(C(=O)NS(=O)(=O)c4ccc(NCC5CCOCC5)c([N+](=O)[O-])c4)c(Oc4cnc5[nH]ccc5c4)c3)CC2)=C(c2ccc(Cl)cc2)C1 | cell kill, PI exclusion flow cytometry | normal CD3+ T lymphocytes, dog, lymph node | 24 h |  | EC50 | 31 ± 24 nM |
| CC[C@H](C)[C@H](NC(=O)[C@H](CCC(N)=O)NC(=O)[C@H](Cc1c[nH]cn1)NC(=O)[C@H](C)NC(=O)[C@H](CC(C)C)NC(=O)[C@H](CCCCN)NC(=O)[C@H](CCC(N)=O)NC(=O)[C@@H](NC(=O)[C@@H](NC(=O)[C@@H]1CSSC[C@H](NC(=O)CNC(=O)[C@H](Cc2ccccc2)NC(=O)[C@H](CO)NC(=O)[C@H](CCCNC(=N)N)NC(=O)[C@H](CC(C)C)NC(=O)CNC(=O)[C@H](CCC(N)=O)NC(=O)[C@H](Cc2ccccc2)NC(=O)[C@H](CC(N)=O)NC(=O)[C@H](CC(N)=O)NC(=O)[C@H](CCSC)NC(=O)[C@H](CO)NC(=O)[C@H](CCC(N)=O)NC(=O)[C@H](CCCNC(=N)N)NC(=O)[C@@H](N)Cc2ccc(O)cc2)C(=O)N[C@@H](CCCNC(=N)N)C(=O)N[C@@H](Cc2ccccc2)C(=O)NCC(=O)N[C@@H]([C@@H](C)O)C(=O)N1)[C@@H](C)O)C(C)C)C(=O)N[C@@H](Cc1ccc(O)cc1)C(=O)N[C@@H](CCC(N)=O)C(=O)N[C@@H](Cc1ccccc1)C(=O)N[C@H](C(=O)N[C@@H](CC(=O)O)C(=O)N[C@@H](CCCCN)C(=O)N[C@@H](CC(=O)O)C(=O)N[C@@H](CCCCN)C(=O)N[C@@H](CC(=O)O)C(=O)N[C@@H](CC(N)=O)C(=O)N[C@H](C(=O)N[C@@H](C)C(=O)N1CCC[C@H]1C(=O)N[C@@H](CCCNC(=N)N)C(=O)N[C@@H](CO)C(=O)N[C@@H](CCCCN)C(=O)N[C@H](C(=O)N[C@@H](CO)C(=O)N1CCC[C@H]1C(=O)N[C@@H](CCC(N)=O)C(=O)NCC(=O)N[C@@H](Cc1ccc(O)cc1)C(N)=O)[C@@H](C)CC)C(C)C)[C@@H](C)O |  | patients, biologic-resistant Crohn's disease | intravenous infusion, 10 ng/kg/min, 4 weeks, unit not given, added: biologic | reference: baseline | change in CDAI | -77 ± 90 |
| cotadutide | mixed-meal tolerance test | human, type 2 diabetes, CKD | subcutaneous, 50 to 300 µg once daily, day 32 | reference: baseline | change in glucose AUC(0-4h) | -26.7% |
| Cn1cc(-c2nc(N[C@@H]3CCCC[C@@H]3N)c(F)c3c2C(=O)NC3)cn1 |  | relapsed or refractory AML patients | dose not given |  | complete response rate | 15% |
| Cn1cc(Nc2nccc(-c3ccc4c(c3)CN(C3COC3)CC[C@H]4NC(=O)c3cn(C(C)(C)C)nn3)n2)cn1 | refers to: CD69 | B cells, mouse, whole blood | added: anti-IgD |  | IC50 | 57 ± 33 nM |
| cilengitide |  | Sprague-Dawley rats, ethanol control, colonic smooth muscle cells | ip, 18 mg/kg/day, 42 d |  | total TGF-β1 level | 9.77 ± 0.23 ng/mg protein |
| SIYNFEKL | flow cytometry, refers to: CD44hi CD8+ T cells | peptide, OT-I CD8+ T cells, mouse | dose not given, primed 5 days, TGF-β1 from day 2 onward, added: 20 ng/mL TGF-β1 |  | cytokine-negative cells | 24.1% |
| C[C@]12CC[C@@H]3c4ccc(O)cc4CC[C@H]3[C@@H]1CC[C@@H]2O | qRT-PCR | men with localised prostate cancer, prostate epithelium | dose not given | reference: untreated men | TMPRSS2 mRNA level | decreased |
| C#Cc1cccc(Nc2ncnc3cc(OCCOC)c(OCCOC)cc23)c1 |  | rat MNU mammary carcinogenesis | oral, 6 mg/kg daily | reference: vehicle | tumour multiplicity reduction | 90% |
| COc1cc(F)c([C@@H]2CNC(=O)[C@H]2NC(=O)Nc2ccccc2)c(F)c1 | zymosan phagocytosis, stimulator | wild-type peritoneal macrophages, mouse | BioGel-elicited |  | EC50 | ~0.008 nM |
| COc1ccc(/C(CSc2nnc(-c3nnn(-c4ccc(S(N)(=O)=O)cc4)c3C)n2-c2ccccc2)=N\O)cc1 | Griess | phosphate buffer-methanol | 100 µM, 1 h, pH 7.4, 37 °C, added: N-acetylcysteine 0.5 mM | reference: theoretical maximum release | NO released | 3.18% |
| Cc1nc(-c2ccc(OCC(C)C)c(C#N)c2)sc1C(=O)O |  | healthy humans | 80 mg once daily, day 7, fasted, multiple ascending dose | reference: baseline | serum uric acid change | -58.8% |
| CCCOc1ccc(S(=O)(=O)NCCC2CCCN2C)cc1-c1nc2c(CCC)nn(C)c2c(=O)[nH]1 (stereo not shown) | ramp cycle exercise test | human adolescents after Fontan palliation | oral, 87.5 mg twice daily, day 5 |  | VO2 at anaerobic threshold | 16.5 ± 5.2 mL/min/kg |
| COc1cnc(C(=O)Nc2ccc(F)c([C@]34CN(c5ncc(F)cn5)C[C@H]3CSC(N)=N4)c2)cn1 | refers to: CSF Aβ1–40 and Aβ1–42 | healthy humans | 1.6 mg single dose |  | time to nadir | ~8 h |
| CC(C)[C@](O)(c1ccc2cc(OC(F)F)c(OC(F)F)cc2c1)c1c[nH]nn1 |  | human patients | dose not given, cycle 2 day 1 | reference: baseline | serum estradiol decline median | -52% |
| Cc1ccc(NC(=O)c2ccc(CN3CCN(C)CC3)cc2)cc1Nc1nccc(-c2cncc(-c3oncc3C)c2)n1 |  | mild-to-moderate Parkinson's disease patients | oral, 100 mg once daily, pre-dose baseline, on anti-Parkinson medication | direction not given | NMSS score | 18.4 ± 16.1 |
| PACAP | qRT-PCR, GAPDH-normalised, refers to: PAC1-receptor | APP V717I transgenic mouse, 6 months old, brain | intranasal, dose not given, 3 months | reference: vehicle-treated mice | mRNA level | 168 ± 13.2% |
| CC(C)C[C@H](NC(=O)[C@H](CO)NC(=O)[C@H](CCCNC(=N)N)NC(=O)[C@H](CC(=O)O)NC(=O)[C@H](CCC(=O)O)NC(=O)[C@H](C)NC(=O)[C@@H]1CCCN1C(=O)[C@H](C)NC(=O)[C@H](CCC(=O)O)NC(=O)[C@@H]1CCCN1C(=O)[C@@H]1CCCN1)C(N)=O | refers to: tyrosine hydroxylase | rat F344, unilateral 6-OHDA lesion, lesioned SNpc middle, -5.60 mm from bregma | intranasal, 300 µg daily |  | TH+ neuron number | 29 ± 5 |
| CCc1cnn2c(NCc3ccc[n+]([O-])c3)cc(N3CCCC[C@H]3CCO)nc12 | lymphocyte proliferation, BrdU incorporation | human, whole blood ex vivo | intravenous infusion, 8 h infusion, effect from 1 h, sustained, added: PHA |  | minimum pharmacodynamic dose | ≥ 14.8 mg/m2 |
| COc1ccc2c(c1)c(CC(=O)O)c(C)n2C(=O)c1ccc(Cl)cc1 | multiplex bead immunoassay, refers to: IFN | CD-1 mice, serum | ip, 20 mg/kg, three-injection regimen, added: LPS 3 mg/kg |  | cytokine level | 0.9 ± 0.9 pg/mL |
| CS/C(S)=N/CCCC[S+](C)[O-] (racemic) | RT-PCR, refers to: Gckr | rat, colon | oral gavage, 200 mg/kg, 96 h, dosed for four days | reference: vehicle | mRNA fold change | 6.82 |
| Cn1cnc2ncn(Cc3nc(CCc4ccc(Cl)cc4)no3)c(=O)c21 | Randall-Selitto | rat, CFA inflammatory pain | 300 mg/kg, 2 h |  | paw withdrawal threshold | 87.6 ± 4.4 g |
| SIIVFEKL | flow cytometry, refers to: CD44hi CD8+ T cells | peptide, OT-I CD8+ T cells, mouse | dose not given, primed 5 days, restimulated 100 ng/mL OVA257, added: no TGF-β1 |  | TNF-α only cells | 0.2% |
| c1cnc2c(c1)ccc1cccnc12 |  | chloroplast extract | concentration not given, up to 30 min |  | transit peptide degradation | stable |
| Cc1cn(-c2cc(NC(=O)c3ccc(C)c(Nc4nccc(-c5cccnc5)n4)c3)cc(C(F)(F)F)c2)cn1 |  | human | 150 mg, week 36 follow-up | direction not given | UPDRS III score | 27 and 64 and 38 and 54 |

A few entries again:
| Substance | assay | test system | conditions | scale | measurement | value |
| --- | --- | --- | --- | --- | --- | --- |
| cilengitide |  | Sprague-Dawley rats, ethanol control, colonic smooth muscle cells | ip, 18 mg/kg/day, 42 d |  | total TGF-β1 level | 9.77 ± 0.23 ng/mg protein |
| CN(C)C(=O)N[C@H]1CC[C@H](CCN2CCN(c3cccc(Cl)c3Cl)CC2)CC1 |  | Sprague-Dawley rat, ouabain-induced mania | ip, 0.06 mg/kg daily, 7 days, squares in 30 min, added: ouabain icv single |  | open field activity | 112 ± 22.9 squares crossed |
